# Experimental data of several laboratories.
# Parts stem from different laboratories: compare values within a part only. Changes are numbered by the printed parent chain.

# Set 1
# Target: CCNE1, cyclin fold, Cln2 fusion (human)
# Technique: yeast growth competition, sequencing
# Sample: yeast
# Notes: strong parent motif
# Baseline: not given
# Reading: higher = stronger binding
# Parent: ANKRD17 docking peptide (human); PSVRRQLFVTVVK; partner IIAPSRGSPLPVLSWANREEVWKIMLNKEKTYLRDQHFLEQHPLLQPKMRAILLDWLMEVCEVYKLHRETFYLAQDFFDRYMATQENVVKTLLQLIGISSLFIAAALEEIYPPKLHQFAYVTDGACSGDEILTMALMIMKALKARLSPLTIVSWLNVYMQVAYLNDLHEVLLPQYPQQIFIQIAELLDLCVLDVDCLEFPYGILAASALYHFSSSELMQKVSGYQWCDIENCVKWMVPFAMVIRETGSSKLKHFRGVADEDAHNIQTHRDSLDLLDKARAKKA
Substitution,normalised enrichment score
V9A,3.87
R5A L7A,0.452
F8L,0.595
R5A,1.82
V12A,6.2
P1A,4.4
K13A,4.75
T10A,4.81
F8A,1.17

# Set 2
# Target: TAR DNA-binding protein 43, full length, His tag (TARDBP, Homo sapiens, UniProt Q13148, residues 1-414)
# Technique: RNA Bind-n-Seq
# Form: RNA
# Sample: in vitro
# Tested at: 20 nM
# Notes: 6-mer, flanks averaged, single round
# With: 150 mM KCl
# Baseline: input library
# Reading: higher = stronger binding
Strand,6-mer enrichment (R)
AGAAGA,0.922
GGUUGC,1.34
AUAAGC,0.668
CGAGAC,0.84
GUACCA,0.692
CAACGC,0.667
GUGCGU,1.47
ACGGGC,2.15
UUUUAU,0.723
ACGACA,0.661
ACUUUC,0.555
GUAAAU,0.694
ACAGAU,0.628
GGUCUG,1.46
GUUAAC,0.611
CAACAA,0.807

# Set 3
# Target: ATF3, bZIP domain (human)
# Technique: DHFR protein complementation
# Sample: yeast
# Notes: single substitutions, most at no-binding floor
# Baseline: wild-type JUN-FOS pair
# Reading: higher = stronger binding
# Parent: JUN, bZIP domain (human); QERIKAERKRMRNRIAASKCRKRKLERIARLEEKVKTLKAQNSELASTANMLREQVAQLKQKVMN; partner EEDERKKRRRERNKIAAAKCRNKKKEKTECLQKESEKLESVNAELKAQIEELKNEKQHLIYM
Substitution,binding fitness
L52P,-1.18 natural log
A40F,-0.215 natural log
A29V,-0.364 natural log
R30H,-0.0769 natural log
L38F,-0.701 natural log
S43F,-0.171 natural log
I28S,-0.293 natural log
L31A,-0.431 natural log
S43E,0.0195 natural log
T37K,-0.0505 natural log
N42E,-0.512 natural log
E33N,-0.289 natural log
L45Y,-0.416 natural log
Q41E,-0.00702 natural log
E44G,-0.413 natural log
L38R,-1.05 natural log
R30C,-0.131 natural log

# Set 4
# Target: Histone acetyltransferase KAT6A, both winged helices, GST fusion (KAT6A, Homo sapiens, UniProt Q92794, residues 1-181)
# Technique: protein binding microarray
# Form: double-stranded DNA, one strand shown
# Sample: in vitro
# Tested at: not given
# Notes: 8-mer, flanks averaged, mean of 2 arrays, mostly near background
# Baseline: not given
# Reading: higher = stronger binding
# Target sequence (chain): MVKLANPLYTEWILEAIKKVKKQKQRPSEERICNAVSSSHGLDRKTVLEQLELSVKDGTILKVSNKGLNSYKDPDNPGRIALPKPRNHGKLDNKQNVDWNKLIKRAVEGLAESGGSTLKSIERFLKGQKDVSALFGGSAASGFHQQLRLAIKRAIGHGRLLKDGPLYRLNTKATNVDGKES
Strand,E-score
ACGAAGGA,-0.0797
AACTTCAT,-0.0864
GGGTCAGA,-0.0406
ATAACTGG,-0.143
GCTCTTAA,-0.0678
CCCTCGCA,0.0765
ACCTGGCC,-0.117
GACTCATC,-0.0834
CAACGGAC,0.188
AAATGGCT,-0.139
GCCGCGGC,0.436
ATACGAGG,-0.0655
ATGGCTCG,-0.105
CCCTGAGG,-0.126
CTTTAGAC,-0.075
CAAGGTGG,-0.125
AACGAATA,-0.0289
CACTCGCC,0.111
CGCCGGCA,0.28
ACAATCGG,0.157
AACCTTCG,-0.0922
CTAGGAGC,-0.0941
ACAACCGA,-0.0202
GATGCGTA,0.0285

# Set 5
# Target: Phosphate system positive regulatory protein PHO4, full length, GST-tagged (PHO4, Saccharomyces cerevisiae, UniProt P07270, residues 1-312)
# Technique: competition protein-binding microarray
# Form: double-stranded DNA, one strand shown
# Sample: in vitro
# Tested at: 2 µM
# Notes: whole 60-bp probe, lowest competitor level
# With: Cbf1 competitor, 0.05 µM
# Reading: higher = stronger binding
# Residues (chain): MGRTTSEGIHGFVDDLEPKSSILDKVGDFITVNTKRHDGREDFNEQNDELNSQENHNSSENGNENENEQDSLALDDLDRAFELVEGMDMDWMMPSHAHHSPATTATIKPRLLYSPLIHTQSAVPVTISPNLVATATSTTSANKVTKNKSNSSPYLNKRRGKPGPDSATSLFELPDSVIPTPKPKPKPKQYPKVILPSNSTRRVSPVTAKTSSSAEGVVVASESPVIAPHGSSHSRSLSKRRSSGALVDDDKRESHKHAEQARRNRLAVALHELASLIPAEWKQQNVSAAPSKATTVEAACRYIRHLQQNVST
Strand,fluorescence intensity [a.u.]
AAAAAACTACCCCATCACGTGAAATTTATTAGAAAAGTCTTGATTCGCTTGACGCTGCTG,11300
GCAGAGTGATAGCGTCACAGGAAATAGCGCAACCTTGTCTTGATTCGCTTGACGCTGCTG,3040
CGGGGTTAAGTTTGCAGTGTGGGTGGCTTGCAGCAGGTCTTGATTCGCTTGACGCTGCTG,6090
AATTGAGAGGGTTTTCACGGGTAGTGGGCACAATGTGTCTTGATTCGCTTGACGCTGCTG,6460
CTAACGTTGGAGGATCCCGTGACGGTGGAGTATCTCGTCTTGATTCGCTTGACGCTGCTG,5210
AAAGCGGTAATTTGACGCGTGGGTGCAGATATCTATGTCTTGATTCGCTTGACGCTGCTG,9860
AAATTACTAAGTTGATCTGTGGGTGACGCCGTATGAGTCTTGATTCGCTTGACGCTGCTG,3790
TTTTCAAGGGATAAGCACATGACAATGGGCGACAAAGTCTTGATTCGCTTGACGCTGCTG,8100
TGCGCAACAACTTGTCACCATACTTTATGTCTAGAAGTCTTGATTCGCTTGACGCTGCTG,3920
GACGGCCAAAAACTTCACATGCCGCCCAGCCAAGCAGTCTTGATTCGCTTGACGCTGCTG,6310
CTTCTGTAAATTTGTAGAGTGGGTGGACGCGCCCCGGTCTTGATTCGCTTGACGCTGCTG,3600
CTTTCCCGATCTTGCAGAGTGGGTGTAGCACATTTGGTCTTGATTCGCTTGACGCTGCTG,4610
CGGGGTTAAGTTTGCATAGTGGGTGGCTTGCAGCAGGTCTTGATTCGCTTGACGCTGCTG,5100
AAAGCGGTAATTTGTCACAGTACTTCACATATCTATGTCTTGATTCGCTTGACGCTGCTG,3670
GTCTTCTCCAAAACATTCGTGACGAATAGTCCTGCTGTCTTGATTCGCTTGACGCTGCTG,5510
CTCTCGATGGGCCATCACGTGAAGTAGGCACTATCAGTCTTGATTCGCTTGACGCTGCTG,11800
TCAAAAAAGAAACTACACGTGCTTTTAATATACCGAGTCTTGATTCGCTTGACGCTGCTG,16300
TTCTAGTTATTGTTGCTCGTGCAAAGATGTGCTGTGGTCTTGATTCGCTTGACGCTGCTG,9130
AGATCAATTATCCGAAGCGGGTCCCAACCCGGAAATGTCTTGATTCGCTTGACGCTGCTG,2640
CTTTCCCGATCTTGGGCAGTGGGTGTAGCACATTTGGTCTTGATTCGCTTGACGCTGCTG,4200
TGCGCAACAACTTGACAGGTGGGTGTATGTCTAGAAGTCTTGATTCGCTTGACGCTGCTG,6310
CAAATTTGCCAGCGTCACAATGTCGTTTGCCTCTTGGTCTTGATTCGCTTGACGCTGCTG,3610
CTTCTGTAAATTTGACAGGTGGGTGGACGCGCCCCGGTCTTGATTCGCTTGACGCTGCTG,5790
CCTGCCGAAACGAGTCACGGCGATGAACAAAATAGGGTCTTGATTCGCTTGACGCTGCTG,5990
CGTCTGCTAATGGCGGACGTGGTCGATGATGAAGAGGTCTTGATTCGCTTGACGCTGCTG,6370

# Set 6
# Target: ABI1, truncated, D143A, DHFR fusion (Arabidopsis thaliana)
# Technique: DHFR PCA, deep sequencing
# Sample: yeast
# Notes: methotrexate growth selection, single substitutions
# With: (+)-ABA 200 µM
# Baseline: wild-type fitted maximum
# Reading: higher = stronger binding
# Parent: PYL1, truncated, DHFR fusion (Arabidopsis thaliana); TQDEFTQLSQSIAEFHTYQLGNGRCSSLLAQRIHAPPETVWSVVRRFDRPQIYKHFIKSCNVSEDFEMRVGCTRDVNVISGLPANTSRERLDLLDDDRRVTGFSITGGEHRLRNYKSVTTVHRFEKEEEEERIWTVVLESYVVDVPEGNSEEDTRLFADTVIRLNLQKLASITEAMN; partner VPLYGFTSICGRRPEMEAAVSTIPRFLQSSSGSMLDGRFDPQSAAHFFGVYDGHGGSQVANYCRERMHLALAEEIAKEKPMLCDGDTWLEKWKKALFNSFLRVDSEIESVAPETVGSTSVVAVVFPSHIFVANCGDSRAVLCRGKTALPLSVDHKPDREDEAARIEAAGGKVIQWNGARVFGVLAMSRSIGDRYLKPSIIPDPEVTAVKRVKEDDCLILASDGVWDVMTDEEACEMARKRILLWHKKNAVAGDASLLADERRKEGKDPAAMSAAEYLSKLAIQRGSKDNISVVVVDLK
Substitution,relative binding score
Y115G,-17.3%
E139H,86%
F103T,-5.6%
R98Y,88.2%
S42Q,107%
Y115M,52.6%
E147A,99.4%
E109C,90.9%
R69A,101%
E14V,85.2%
L91I,33.2%
S9H,80.9%
N149M,39.3%

# A few entries again (set 5):
Strand,fluorescence intensity [a.u.]
CTAACGTTGGAGGATCCCGTGACGGTGGAGTATCTCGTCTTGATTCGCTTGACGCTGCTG,5210
AAAGCGGTAATTTGACGCGTGGGTGCAGATATCTATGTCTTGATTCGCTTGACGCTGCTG,9860
AAATTACTAAGTTGATCTGTGGGTGACGCCGTATGAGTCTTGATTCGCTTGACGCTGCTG,3790
TTTTCAAGGGATAAGCACATGACAATGGGCGACAAAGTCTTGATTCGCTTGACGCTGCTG,8100
TGCGCAACAACTTGTCACCATACTTTATGTCTAGAAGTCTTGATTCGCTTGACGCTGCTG,3920
GACGGCCAAAAACTTCACATGCCGCCCAGCCAAGCAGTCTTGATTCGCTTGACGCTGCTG,6310
CTTCTGTAAATTTGTAGAGTGGGTGGACGCGCCCCGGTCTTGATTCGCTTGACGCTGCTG,3600
